Published values from different studies.
Each numbered part is a random draw from the data of one study; scales do not carry over between parts. Several values in a cell are separate wells, animals, samples, runs or records.
UniProt P42336, sequence (whole entry, unmodified, looked up): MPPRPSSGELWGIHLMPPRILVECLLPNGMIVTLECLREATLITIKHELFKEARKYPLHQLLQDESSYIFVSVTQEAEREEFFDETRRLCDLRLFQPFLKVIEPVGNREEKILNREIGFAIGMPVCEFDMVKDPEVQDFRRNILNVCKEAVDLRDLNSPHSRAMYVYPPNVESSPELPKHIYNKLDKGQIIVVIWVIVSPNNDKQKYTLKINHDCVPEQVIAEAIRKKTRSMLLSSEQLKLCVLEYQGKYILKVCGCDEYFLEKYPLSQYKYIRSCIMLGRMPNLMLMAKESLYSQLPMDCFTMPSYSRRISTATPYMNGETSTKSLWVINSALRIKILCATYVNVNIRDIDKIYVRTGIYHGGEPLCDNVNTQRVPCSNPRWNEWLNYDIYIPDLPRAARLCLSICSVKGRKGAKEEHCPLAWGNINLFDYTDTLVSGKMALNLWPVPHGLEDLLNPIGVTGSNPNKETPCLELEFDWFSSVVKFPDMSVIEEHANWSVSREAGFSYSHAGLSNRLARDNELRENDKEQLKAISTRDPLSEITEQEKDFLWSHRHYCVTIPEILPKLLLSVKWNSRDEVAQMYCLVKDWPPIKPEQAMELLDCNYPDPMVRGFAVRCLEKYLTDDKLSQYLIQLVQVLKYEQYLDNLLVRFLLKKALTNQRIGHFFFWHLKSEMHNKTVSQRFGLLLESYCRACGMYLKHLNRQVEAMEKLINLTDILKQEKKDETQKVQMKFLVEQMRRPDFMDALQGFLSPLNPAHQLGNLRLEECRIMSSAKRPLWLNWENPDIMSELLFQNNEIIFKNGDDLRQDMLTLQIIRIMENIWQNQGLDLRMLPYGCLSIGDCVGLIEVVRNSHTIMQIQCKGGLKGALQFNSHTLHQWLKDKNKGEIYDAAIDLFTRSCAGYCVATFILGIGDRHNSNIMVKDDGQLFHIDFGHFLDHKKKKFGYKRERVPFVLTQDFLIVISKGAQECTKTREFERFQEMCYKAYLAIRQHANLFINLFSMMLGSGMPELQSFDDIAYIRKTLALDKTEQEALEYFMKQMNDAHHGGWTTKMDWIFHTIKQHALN
UniProt P07948, sequence (whole entry, looked up): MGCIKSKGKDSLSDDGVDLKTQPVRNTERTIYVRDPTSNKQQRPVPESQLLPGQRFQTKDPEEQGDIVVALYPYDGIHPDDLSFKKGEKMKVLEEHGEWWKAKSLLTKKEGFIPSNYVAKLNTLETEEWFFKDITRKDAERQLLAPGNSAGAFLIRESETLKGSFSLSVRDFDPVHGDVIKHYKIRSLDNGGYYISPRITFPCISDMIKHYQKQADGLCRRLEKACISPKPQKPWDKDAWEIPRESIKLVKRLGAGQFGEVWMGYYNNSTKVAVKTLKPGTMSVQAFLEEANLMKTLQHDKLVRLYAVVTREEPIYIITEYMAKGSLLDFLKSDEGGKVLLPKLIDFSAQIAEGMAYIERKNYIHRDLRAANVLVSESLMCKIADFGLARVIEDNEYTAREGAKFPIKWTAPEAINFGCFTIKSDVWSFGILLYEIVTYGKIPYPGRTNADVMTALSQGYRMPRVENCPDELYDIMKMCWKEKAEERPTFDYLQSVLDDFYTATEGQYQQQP
UniProt Q9Y243, sequence (whole entry, looked up): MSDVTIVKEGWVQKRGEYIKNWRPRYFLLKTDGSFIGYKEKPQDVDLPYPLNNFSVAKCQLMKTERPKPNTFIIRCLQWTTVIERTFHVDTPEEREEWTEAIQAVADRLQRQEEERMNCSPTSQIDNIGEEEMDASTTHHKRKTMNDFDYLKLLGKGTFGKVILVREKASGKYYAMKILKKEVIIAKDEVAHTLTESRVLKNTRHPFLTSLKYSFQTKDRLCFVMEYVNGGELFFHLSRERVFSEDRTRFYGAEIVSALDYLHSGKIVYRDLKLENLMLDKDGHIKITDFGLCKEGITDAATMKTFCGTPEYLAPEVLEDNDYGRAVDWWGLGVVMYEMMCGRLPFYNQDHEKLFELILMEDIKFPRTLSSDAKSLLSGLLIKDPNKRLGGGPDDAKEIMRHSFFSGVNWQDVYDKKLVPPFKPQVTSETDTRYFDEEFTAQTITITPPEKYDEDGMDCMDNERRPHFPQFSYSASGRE
UniProt Q9HBH9, sequence (whole entry, looked up): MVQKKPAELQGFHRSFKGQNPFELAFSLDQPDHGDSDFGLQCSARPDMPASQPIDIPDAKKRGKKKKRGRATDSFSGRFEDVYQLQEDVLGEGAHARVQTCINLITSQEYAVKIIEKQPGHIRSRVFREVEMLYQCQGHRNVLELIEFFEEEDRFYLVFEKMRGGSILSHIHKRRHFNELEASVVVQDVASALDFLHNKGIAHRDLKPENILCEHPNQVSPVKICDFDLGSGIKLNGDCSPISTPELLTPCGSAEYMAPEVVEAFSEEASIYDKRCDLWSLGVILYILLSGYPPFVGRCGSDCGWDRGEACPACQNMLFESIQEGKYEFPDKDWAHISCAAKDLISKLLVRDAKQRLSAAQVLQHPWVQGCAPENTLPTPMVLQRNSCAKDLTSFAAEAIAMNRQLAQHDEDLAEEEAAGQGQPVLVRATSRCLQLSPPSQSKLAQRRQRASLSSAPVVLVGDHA
UniProt Q12852, sequence (whole entry, looked up): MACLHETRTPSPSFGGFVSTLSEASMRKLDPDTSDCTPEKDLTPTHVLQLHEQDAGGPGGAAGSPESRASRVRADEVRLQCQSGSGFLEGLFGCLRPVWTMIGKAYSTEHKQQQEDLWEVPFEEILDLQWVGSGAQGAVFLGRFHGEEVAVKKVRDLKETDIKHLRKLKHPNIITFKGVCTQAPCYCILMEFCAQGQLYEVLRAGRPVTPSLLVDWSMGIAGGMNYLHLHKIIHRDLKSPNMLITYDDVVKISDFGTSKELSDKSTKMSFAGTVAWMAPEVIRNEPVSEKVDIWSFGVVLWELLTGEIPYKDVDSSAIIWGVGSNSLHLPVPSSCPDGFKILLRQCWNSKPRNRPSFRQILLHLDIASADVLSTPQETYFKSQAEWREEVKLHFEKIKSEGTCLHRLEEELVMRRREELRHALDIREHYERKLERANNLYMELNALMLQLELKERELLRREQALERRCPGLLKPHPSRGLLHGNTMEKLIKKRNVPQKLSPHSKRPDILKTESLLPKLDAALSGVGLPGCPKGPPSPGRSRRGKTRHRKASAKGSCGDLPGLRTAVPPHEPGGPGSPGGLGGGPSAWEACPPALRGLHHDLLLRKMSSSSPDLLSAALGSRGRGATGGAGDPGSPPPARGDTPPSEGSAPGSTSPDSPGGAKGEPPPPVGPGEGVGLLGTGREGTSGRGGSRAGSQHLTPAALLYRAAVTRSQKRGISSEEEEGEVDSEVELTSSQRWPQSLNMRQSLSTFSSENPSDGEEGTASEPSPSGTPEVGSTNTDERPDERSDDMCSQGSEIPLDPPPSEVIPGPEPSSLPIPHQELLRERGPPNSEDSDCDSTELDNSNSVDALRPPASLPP
UniProt Q92918, sequence (whole entry, looked up): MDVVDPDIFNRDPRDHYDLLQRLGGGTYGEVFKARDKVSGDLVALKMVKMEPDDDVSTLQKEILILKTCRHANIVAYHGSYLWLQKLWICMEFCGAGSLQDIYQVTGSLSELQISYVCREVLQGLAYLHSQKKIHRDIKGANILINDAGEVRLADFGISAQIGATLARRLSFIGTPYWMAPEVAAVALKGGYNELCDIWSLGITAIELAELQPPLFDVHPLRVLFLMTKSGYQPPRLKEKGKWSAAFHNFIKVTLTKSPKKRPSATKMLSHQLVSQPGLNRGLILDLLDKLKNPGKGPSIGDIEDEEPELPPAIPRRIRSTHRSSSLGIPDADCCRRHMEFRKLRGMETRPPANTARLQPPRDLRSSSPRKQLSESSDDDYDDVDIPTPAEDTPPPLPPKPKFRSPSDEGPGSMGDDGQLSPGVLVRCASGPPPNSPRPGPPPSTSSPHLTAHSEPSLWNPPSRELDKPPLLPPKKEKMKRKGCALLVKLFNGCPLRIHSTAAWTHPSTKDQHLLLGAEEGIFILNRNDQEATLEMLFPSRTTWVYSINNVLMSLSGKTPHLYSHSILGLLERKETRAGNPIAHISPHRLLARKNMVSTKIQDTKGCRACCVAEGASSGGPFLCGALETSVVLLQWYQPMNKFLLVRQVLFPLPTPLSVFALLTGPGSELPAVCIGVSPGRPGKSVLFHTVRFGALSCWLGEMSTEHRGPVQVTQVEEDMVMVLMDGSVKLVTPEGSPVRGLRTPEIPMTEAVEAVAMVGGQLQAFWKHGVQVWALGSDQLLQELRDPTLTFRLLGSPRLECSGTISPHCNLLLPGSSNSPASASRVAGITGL
UniProt P48729, sequence (whole entry, looked up): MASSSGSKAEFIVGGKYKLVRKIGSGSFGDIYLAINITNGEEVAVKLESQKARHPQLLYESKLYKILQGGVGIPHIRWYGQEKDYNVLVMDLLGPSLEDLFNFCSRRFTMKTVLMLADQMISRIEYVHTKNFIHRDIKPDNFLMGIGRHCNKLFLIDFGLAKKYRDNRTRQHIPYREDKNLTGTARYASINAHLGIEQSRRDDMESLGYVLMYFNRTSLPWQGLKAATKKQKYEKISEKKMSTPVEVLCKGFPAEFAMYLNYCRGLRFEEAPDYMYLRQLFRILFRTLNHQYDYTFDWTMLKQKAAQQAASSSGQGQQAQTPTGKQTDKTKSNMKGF

Sample 1 — Structure (SMILES): COc1ccc2c(c1)/C(=C/c1cnc[nH]1)C(=O)N2; observed: enzyme activity; action: inhibitor; concentration: 0.5 µM; endpoint: remaining activity
BTK (Homo sapiens, UniProt Q06187); baseline: control: 101%
PRKG1 (Homo sapiens, UniProt Q13976); baseline: control: 99%
CSNK2A1 (Homo sapiens, UniProt P68400); baseline: control: 67.8%
MAP4K2 (Homo sapiens, UniProt Q12851); baseline: control: 42.6%
KIT (Homo sapiens, UniProt P10721); baseline: control: 84.1%
MAPK13 (Homo sapiens, UniProt O15264); baseline: control: 102%
PRKCI (Homo sapiens, UniProt P41743); baseline: control: 96.9%
WNK2 (Homo sapiens, UniProt Q9Y3S1); baseline: control: 102%
CSNK1A1 (Homo sapiens, UniProt P48729); baseline: control: 86.4%
Cyclin-dependent kinase 9, with cyclin T1 (CDK9, Homo sapiens, UniProt P50750); baseline: control: 67.4%
EPHA5 (Homo sapiens, UniProt P54756); baseline: control: 86.2%
MAPK12 (Homo sapiens, UniProt P53778); baseline: control: 95.5%
LRRK2 (Homo sapiens, UniProt Q5S007); baseline: control: 27.9%
PLK2 (Homo sapiens, UniProt Q9NYY3); baseline: control: 95.2%
MAP2K6 (Homo sapiens, UniProt P52564); baseline: control: 90.1%
IRAK4 (Homo sapiens, UniProt Q9NWZ3); baseline: control: 92.2%
MKNK2 (Homo sapiens, UniProt Q9HBH9); baseline: control: 84.9%
NEK4 (Homo sapiens, UniProt P51957); baseline: control: 96%
MAP3K10 (Homo sapiens, UniProt Q02779); baseline: control: 92.9%
AKT3 (Homo sapiens, UniProt Q9Y243); baseline: control: 101%
STK38 (Homo sapiens, UniProt Q15208); baseline: control: 86.2%
STK33 (Homo sapiens, UniProt Q9BYT3); radiometric: 74.7%
LYN (Homo sapiens, UniProt P07948); baseline: control: 88.3%
CHEK1 (Homo sapiens, UniProt O14757); baseline: control: 76%
PRKCD (Homo sapiens, UniProt Q05655); baseline: control: 95.5%

Sample 2 — medium: plasma; route: oral; dose: 3.0 mg/kg; endpoint: oral bioavailability
Compound: O=C1CCC(N2Cc3c(ccc4c3OCC43CCN(Cc4ccccc4)CC3)C2=O)C(=O)N1 (stereo not drawn)
ICR mouse, male: 86.3% and 134% and 104%
male ICR mice: 104% and 86.3% and 134%
mouse ICR male: 108%

Sample 3 — observed: cell-free assay; technique: competition with immobilised ligand; concentration: 1 µM; endpoint: remaining binding
SMILES: N#CC1(c2ccccn2)CCN(Cc2cc(C(=O)O)c(=O)n3ccccc23)CC1
ACVR2A (Homo sapiens, UniProt P27037): 95%
STK3 (Homo sapiens, UniProt Q13188): 98%
MAP3K12 (Homo sapiens, UniProt Q12852): 93%
DCLK3 (Homo sapiens, UniProt Q9C098): 89%
NEK11 (Homo sapiens, UniProt Q8NG66): 89%
YES1 (Homo sapiens, UniProt P07947): 94%
KDR (Homo sapiens, UniProt P35968): 79%
DMPK (Homo sapiens, UniProt Q09013): 97%
MAP3K1 (Homo sapiens, UniProt Q13233): 98%
MAP4K1 (Homo sapiens, UniProt Q92918): 100%
WNK3 (Homo sapiens, UniProt Q9BYP7): 99%
GAK (Homo sapiens, UniProt O14976): 100%
Tyrosine-protein kinase ABL1, phosphorylated (ABL1, Homo sapiens, UniProt P00519, M351T): 57%
MARK3 (Homo sapiens, UniProt P27448): 100%
PI4KB (Homo sapiens, UniProt Q9UBF8): 74%
PIM3 (Homo sapiens, UniProt Q86V86): 100%
PIK3CA (Homo sapiens, UniProt P42336, I800L): 90%
MAP2K5 (Homo sapiens, UniProt Q13163): 62%
ANKK1 (Homo sapiens, UniProt Q8NFD2): 68%
TLK2 (Homo sapiens, UniProt Q86UE8): 98%
Tyrosine-protein kinase JAK3, JH1 (JAK3, Homo sapiens, UniProt P52333): 95%
PIK3CA (Homo sapiens, UniProt P42336, C420R): 97%
BMPR2 (Homo sapiens, UniProt Q13873): 89%
CLK4 (Homo sapiens, UniProt Q9HAZ1): 100%
PIP4K2C (Homo sapiens, UniProt Q8TBX8): 99%

Sample 4 — cell line: HaCaT; concentration: 100 µM; time: 36 h; endpoint: viability
O=c1[nH]c2ccccc2n1C1CCN(CCCC(c2ccc(F)cc2)c2ccc(F)cc2)CC1: 9.72%
CCN1C[C@]2(OC(=O)c3ccccc3NC(C)=O)CC[C@H](OC)[C@@]34[C@@H]2C[C@@H]([C@@H]13)[C@@]1(O)C[C@H](OC)[C@H]2C[C@@H]4[C@]1(O)[C@H]2OC: 85.7%
COc1ccc2c(c1)[C@]13CCCC[C@@H]1[C@H](C2)N(C)CC3: 74.2%
C[C@]12CCC(=O)C=C1CC[C@@H]1[C@@H]2CC[C@@]2(C)[C@H]1CC[C@]2(C)O: 72%
COC[C@@H](NC(C)=O)C(=O)NCc1ccccc1: 97.2%
CCOC(=O)c1cncn1[C@H](C)c1ccccc1: 87.5%
CN[C@H]1C[C@@H](N)[C@H](O)[C@@H](O[C@@H]2O[C@H](CO)[C@H](O)[C@@H]3OC4(O[C@H]23)O[C@H]([C@@H](N)CO)[C@H](O)[C@H](O)[C@H]4O)[C@@H]1O (stereo partly drawn): 47.1%

A few entries again (sample 3):
YES1 (Homo sapiens, UniProt P07947): 94%
KDR (Homo sapiens, UniProt P35968): 79%
DMPK (Homo sapiens, UniProt Q09013): 97%
MAP3K1 (Homo sapiens, UniProt Q13233): 98%
MAP4K1 (Homo sapiens, UniProt Q92918): 100%
WNK3 (Homo sapiens, UniProt Q9BYP7): 99%
